# Measured values collected from several papers.
# “And” joins repeats or separate records; there may be more than shown. ± marks the error that the study gave.
# Method: steady-state kinetics
# B1: PUT1 del N-terminal 18 (Saccharomyces cerevisiae, UniProt P09368); chain CFPLIKRSYVSKTPTHSNTAANLMVETPAANANGNSVMAPPNSINFLQTLPKKELFQLGFIGIATLNSFFLNTIIKLFPYIPIPVIKFFVSSLYCGGENFKEVIECGKRLQKRGISNMMLSLTIENSEGTKSLSSTPVDQIVKETISSVHNILLPNIIGQLESKPINDIAPGYIALKPSALVDNPHEVLYNFSNPAYKAQRDQLIENCSKITKEIFELNQSLLKKYPERKAPFMVSTIDAEKYDLQENGVYELQRILFQKFNPTSSKLISCVGTWQLYLRDSGDHILHELKLAQENGYKLGLKLVRGAYIHSEKNRNQIIFGDKTGTDENYDRIITQVVNDLIINGEDSYFGHLVVASHNYQSQMLVTNLLKSTQDNSYAKSNIVLGQLLGMADNVTYDLITNHGAKNIIKYVPWGPPLETKDYLLRRLQENGDAVRSDNGWPLIKAIAKSIPKRVGL
# B2: UGT88A1 V18R (Arabidopsis thaliana, UniProt Q9LK73); chain MGEEAIVLYPAPPIGHLRSMVELGKTILSKNPSLSIHIILVPPPYQPESTATYISSVSSSFPSITFHHLPAVTPYSSSSTSRHHHESLLLEILCFSNPSVHRTLFSLSRNFNVRAMIIDFFCTAVLDITADFTFPVYFFYTSGAACLAFSFYLPTIDETTPGKNLKDIPTVHIPGVPPMKGSDMPKAVLERDDEVYDVFIMFGKQLSKSSGIIINTFDALENRAIKAITEELCFRNIYPIGPLIVNGRIEDRNDNKAVSCLNWLDSQPEKSVVFLCFGSLGLFSKEQVIEIAVGLEKSGQRFLWVVRNPPELEKTELDLKSLLPEGFLSRTEDKGMVVKSWAPQVPVLNHKAVGGFVTHCGWNSILEAVCAGVPMVAWPLYAEQRFNRVMIVDEIKIAISMNESETGFVSSTEVEKRVQEIIGECPVRERTMAMKNAAELALTETGSSHTALTTLLQSWSPK
# B3: CstB (Staphylococcus aureus, UniProt G5ELA4); chain MFFKQFYDNHLSQASYLVGCQRTGEAIIIDPVRDLSKYIEVADSEGLTITQATETHIHADFASGIRDVAKRLNANIYVSGEGEDALGYKNMPSKTQFVKHGDIIQVGNVKLEVLHTPGHTPESISFLLTDLGGGSSVPMGLFSGDFIFVGDIGRPDLLEKSVQIKGSTEISAKQMYESVQNIKNLPDYVQIWPGHGAGSPCGKALGAIPISTIGYEKINNWAFNEIDETKFIESLTSNQPAPPHHFAQMKQVNQFGMNLYQSYDVYPSLDNKRVAFDLRSKEAFHGGHTKGTINIPYNKNFINQIGWYLDFEKDIDLIGDKSTVEKAKHTLQLIGFDKVAGYRLPKSGISTQSVHSADMTGKEEHVLDVRNDEEWNNGHLDQAVNIPHGKLLNENIPFNKEDKIYVHCQSGVRSSIAVGILESKGFENVVNIREGYQDFPESLK
# B4: enzyme (Listeria monocytogenes, UniProt Q8Y829); chain MKKVITYGTFDLLHWGHIHLLKRAKALGDYLIVAISSDEFNRIKHKEAYHSYEHRKLIIEAIRYVDEVIPENNWEQKRDDIEKYGIDVFVMGDDWEGEFDFLKDVCEVVYLPRTEGISTSQIKDELK
# B5: HEM1 (Saccharomyces cerevisiae, UniProt P09950); chain AAAAANHSTQESGFDYEGLIDSELQKKRLDKSYRYFNNINRLAKEFPLAHRQREADKVTVWCSNDYLALSKHPEVLDAMHKTIDKYGCGAGGTRNIAGHNIPTLNLEAELATLHKKEGALVFSSCYVANDAVLSLLGQKMKDLVIFSDELNHASMIVGIKHANVKKHIFKHNDLNELEQLLQSYPKSVPKLIAFESVYSMAGSVADIEKICDLADKYGALTFLDEVHAVGLYGPHGAGVAEHCDFESHRASGIATPKTNDKGGAKTVMDRVDMITGTLGKSFGSVGGYVAASRKLIDWFRSFAPGFIFTTTLPPSVMAGATAAIRYQRCHIDLRTSQQKHTMYVKKAFHELGIPVIPNPSHIVPVLIGNADLAKQASDILINKHQIYVQAINFPTVARGTERLRITPTPGHTNDLSDILINAVDDVFNELQLPRVRDWESQGGLLGVGESGFVEESNLWTSSQLSLTNDDLNPNVRDPIVKQLEVSSGIKQ
# B6: FabZ (Campylobacter jejuni, UniProt A1VXZ7); chain MIDVMQIQEILPHRYPFLLVDKITELKVKEVVLGYKNISISDHVFMGHFPGHPIYPGVLILEGMAQTGGVLAFESMEDKVDPKSKVVYFTGIDGAKFRNPVRPGDRLDYEMSVVKNRGNMWIFKGQAFVDGNLVAEAELKAMIVDK
# B7: HARS1 Y454S (Homo sapiens, UniProt P12081); chain MAERAALEELVKLQGERVRGLKQQKASAELIEEEVAKLLKLKAQLGPDESKQKFVLKTPKGTRDYSPRQMAVREKVFDVIIRCFKRHGAEVIDTPVFELKETLMGKYGEDSKLIYDLKDQGGELLSLRYDLTVPFARYLAMNKLTNIKRYHIAKVYRRDNPAMTRGRYREFYQCDFDIAGNFDPMIPDAECLKIMCEILSSLQIGDFLVKVNDRRILDGMFAICGVSDSKFRTICSSVDKLDKVSWEEVKNEMVGEKGLAPEVADRIGDYVQQHGGVSLVEQLLQDPKLSQNKQALEGLGDLKLLFEYLTLFGIDDKISFDLSLARGLDYYTGVIYEAVLLQTPAQAGEEPLGVGSVAAGGRYDGLVGMFDPKGRKVPCVGLSIGVERIFSIVEQRLEALEEKIRTTETQVLVASAQKKLLEERLKLVSELWDAGIKAELLYKKNPKLLNQLQSCEEAGIPLVAIIGEQELKDGVIKLRSVTSREEVDVRREDLVEEIKRRTGQPLCIC
# B8: enzyme P89Y (Thermobifida fusca, UniProt Q47RA9); chain MIMIMASKSSPHDLPDVSGLSIAVLGGTGDQGRGLARRFAMAGHEVILGSRSAERAQAVAAELGEGLPVRGMDNAGAAEAGDVVIVAVYWDGHRALLESLKDVLAGKIVVDCVNPLGFDKRGAYALPVEEGSAAEQAAAILPDSRVVAAFHHVSAVLLLDPEVEKVDLDVLVLGDDREATDVVRALAARIPGVRGVYGGRLRNAHQVEAFTANLISINRRYKAHAGIRITDI
# B9: ycjS (Escherichia coli, UniProt P77503); chain MKSAMTSSPLRVAIIGAGQVADKVHASYYCTRNDLELVAVCDSRLSQAQALAEKYGNASVWDDPQAMLLAVKPDVVSVCSPNRFHYEHTLMALEAGCHVMCEKPPAMTPEQAREMCDTARKLGKVLAYDFHHRFALDTQQLREQVTNGVLGEIYVTTARALRRCGVPGWGVFTNKELQGGGPLIDIGIHMLDAAMYVLGFPAVKSVNAHSFQKIGTQKSCGQFGEWDPATYSVEDSLFGTIEFHNGGILWLETSFALNIREQSIMNVSFCGDKAGATLFPAHIYTDNNGELMTLMQREIADDNRHLRSMEAFINHVQGKPVMIADAEQGYIIQQLVAALYQSAETGTRVEL
# B10: Paox H64Q (Mus musculus, UniProt Q8C0L6); chain MAFPGPRVLVVGSGIAGLGAAQKLCSHRAAPHLRVLEATASAGGRIRSERCFGGVVELGAHWIQGPSQDNPVFQLAAEFGLLGEKELSEENQLVDTGGHVALPSMIWSSSGTSVSLELMTEMARLFYGLIERTREFLNESETPMASVGEFLKKEISQQVASWTEDDEDTRKRKLAILNTFFNIECCVSGTHSMDLVALAPFGEYTVLPGLDCILAGGYQGLTDRILASLPKDTVAFDKPVKTIHWNGSFQEAAFPGETFPVLVECEDGARLPAHHVIVTVPLGFLKEHQDTFFEPPLPAKKAEAIKKLGFGTNNKIFLEFEEPFWEPDCQFIQVVWEDTSPLQDTALSLQDTWFKKLIGFLVQPSFESSHVLCGFIAGLESEFMETLSDEEVLLSLTQVLRRVTGNPQLPAAKSVRRSQWHSAPYTRGSYSYVAVGSTGDDLDLMAQPLPEDGTGTQLQVLFAGEATHRTFYSTTHGALLSGWREADRLVSLWDSQVEQSRPRL
# UniProt O60656, sequence (whole entry, looked up): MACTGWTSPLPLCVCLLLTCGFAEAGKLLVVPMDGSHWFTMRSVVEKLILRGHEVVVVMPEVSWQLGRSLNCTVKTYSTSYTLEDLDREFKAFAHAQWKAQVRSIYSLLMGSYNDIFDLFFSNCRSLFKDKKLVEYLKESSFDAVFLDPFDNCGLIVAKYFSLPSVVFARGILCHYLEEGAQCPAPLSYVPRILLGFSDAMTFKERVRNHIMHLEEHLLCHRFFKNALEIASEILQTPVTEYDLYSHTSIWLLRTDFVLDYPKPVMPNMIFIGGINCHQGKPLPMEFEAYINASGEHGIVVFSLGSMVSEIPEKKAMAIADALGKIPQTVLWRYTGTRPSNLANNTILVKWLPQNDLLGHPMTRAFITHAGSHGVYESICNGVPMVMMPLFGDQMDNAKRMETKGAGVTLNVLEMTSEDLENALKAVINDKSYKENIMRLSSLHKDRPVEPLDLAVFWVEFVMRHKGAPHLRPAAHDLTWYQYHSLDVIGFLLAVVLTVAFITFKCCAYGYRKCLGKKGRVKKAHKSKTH
# UniProt Q9NP58, sequence (whole entry, looked up): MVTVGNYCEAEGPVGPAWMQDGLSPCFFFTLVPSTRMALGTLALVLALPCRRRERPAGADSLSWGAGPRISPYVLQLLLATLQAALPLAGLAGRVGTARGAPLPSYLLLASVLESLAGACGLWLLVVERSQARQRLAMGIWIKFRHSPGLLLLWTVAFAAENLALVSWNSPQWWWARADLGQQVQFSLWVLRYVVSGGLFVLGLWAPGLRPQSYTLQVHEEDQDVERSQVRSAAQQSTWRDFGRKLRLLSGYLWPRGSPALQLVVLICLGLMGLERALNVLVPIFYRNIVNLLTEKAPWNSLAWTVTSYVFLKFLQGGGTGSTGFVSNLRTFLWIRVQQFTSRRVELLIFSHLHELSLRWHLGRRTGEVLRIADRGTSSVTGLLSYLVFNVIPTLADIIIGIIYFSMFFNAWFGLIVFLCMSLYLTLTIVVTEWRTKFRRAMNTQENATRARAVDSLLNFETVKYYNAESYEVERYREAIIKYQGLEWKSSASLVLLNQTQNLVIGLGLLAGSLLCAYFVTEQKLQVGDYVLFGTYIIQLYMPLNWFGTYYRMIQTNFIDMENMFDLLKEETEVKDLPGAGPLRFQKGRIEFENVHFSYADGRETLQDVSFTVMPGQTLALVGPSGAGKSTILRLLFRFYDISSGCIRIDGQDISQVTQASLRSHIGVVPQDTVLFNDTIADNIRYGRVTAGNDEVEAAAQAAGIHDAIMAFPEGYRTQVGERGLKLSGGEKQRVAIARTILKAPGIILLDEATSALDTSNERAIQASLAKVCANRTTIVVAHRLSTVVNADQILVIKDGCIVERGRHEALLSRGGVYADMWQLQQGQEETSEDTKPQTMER
# UniProt P0ABH9, sequence (whole entry, looked up): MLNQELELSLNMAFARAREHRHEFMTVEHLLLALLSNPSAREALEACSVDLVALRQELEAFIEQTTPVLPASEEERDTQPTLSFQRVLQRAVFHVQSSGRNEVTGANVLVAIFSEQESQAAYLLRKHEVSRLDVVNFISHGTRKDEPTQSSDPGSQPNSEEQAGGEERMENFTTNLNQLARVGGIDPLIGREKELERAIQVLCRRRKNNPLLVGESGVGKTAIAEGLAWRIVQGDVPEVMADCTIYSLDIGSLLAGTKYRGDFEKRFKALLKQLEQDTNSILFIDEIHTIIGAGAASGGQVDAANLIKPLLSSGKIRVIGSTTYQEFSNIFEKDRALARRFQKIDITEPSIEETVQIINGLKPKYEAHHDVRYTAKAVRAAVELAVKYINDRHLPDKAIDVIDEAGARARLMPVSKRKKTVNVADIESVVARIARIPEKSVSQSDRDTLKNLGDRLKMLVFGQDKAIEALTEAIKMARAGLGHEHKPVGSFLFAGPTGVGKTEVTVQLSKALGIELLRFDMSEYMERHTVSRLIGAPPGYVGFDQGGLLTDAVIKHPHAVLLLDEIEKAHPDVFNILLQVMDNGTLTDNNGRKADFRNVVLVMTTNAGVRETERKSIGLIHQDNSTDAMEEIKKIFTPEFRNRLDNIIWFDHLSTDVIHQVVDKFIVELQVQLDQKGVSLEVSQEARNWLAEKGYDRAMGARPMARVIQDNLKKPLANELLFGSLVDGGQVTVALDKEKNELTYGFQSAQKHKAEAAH
# UniProt Q29437, sequence (whole entry, looked up): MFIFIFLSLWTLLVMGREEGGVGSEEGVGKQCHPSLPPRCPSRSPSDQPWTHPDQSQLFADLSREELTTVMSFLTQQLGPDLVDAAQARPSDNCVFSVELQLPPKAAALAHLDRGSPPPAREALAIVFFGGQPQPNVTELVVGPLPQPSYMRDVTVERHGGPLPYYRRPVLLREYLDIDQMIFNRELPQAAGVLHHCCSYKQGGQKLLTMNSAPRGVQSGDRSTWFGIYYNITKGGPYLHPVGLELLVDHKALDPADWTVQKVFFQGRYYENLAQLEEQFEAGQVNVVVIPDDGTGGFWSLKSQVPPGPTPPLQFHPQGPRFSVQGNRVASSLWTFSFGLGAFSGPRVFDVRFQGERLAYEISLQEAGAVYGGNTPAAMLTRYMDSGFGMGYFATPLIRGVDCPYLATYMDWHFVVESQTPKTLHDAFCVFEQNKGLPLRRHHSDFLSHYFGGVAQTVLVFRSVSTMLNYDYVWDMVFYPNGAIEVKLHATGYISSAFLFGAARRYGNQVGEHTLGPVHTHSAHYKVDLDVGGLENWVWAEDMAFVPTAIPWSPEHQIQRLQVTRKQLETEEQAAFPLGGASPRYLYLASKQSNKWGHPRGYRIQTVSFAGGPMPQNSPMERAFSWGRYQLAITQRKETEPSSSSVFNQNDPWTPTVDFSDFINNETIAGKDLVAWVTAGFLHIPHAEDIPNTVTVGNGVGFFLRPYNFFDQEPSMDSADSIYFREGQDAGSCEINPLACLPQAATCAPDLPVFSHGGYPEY
# UniProt Q27593, sequence (whole entry, looked up): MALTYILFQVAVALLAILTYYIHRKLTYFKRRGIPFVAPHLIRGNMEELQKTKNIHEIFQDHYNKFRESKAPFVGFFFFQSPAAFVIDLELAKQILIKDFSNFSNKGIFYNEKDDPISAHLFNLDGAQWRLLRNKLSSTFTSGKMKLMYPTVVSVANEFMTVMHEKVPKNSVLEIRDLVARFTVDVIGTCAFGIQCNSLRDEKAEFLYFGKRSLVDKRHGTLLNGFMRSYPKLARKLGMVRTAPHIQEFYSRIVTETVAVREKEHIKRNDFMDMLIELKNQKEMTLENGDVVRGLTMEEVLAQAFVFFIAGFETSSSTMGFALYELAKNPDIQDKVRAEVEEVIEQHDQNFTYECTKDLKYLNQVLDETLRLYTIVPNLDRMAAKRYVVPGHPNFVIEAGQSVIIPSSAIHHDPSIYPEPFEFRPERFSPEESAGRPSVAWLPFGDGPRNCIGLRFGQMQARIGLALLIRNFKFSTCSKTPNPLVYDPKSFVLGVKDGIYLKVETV
Molecule,substrate,system,conditions,endpoint,result
B1 (PUT1 del N-terminal 18),COC1=C(OC)C(=O)C(CC=C(C)C)=C(C)C1=O,,"pH 8, 25 °C, ping-pong, added: proline 300 mM, electron acceptor",kcat,9.6 ± 0.5 s⁻¹
B2 (UGT88A1 V18R),O=c1c(O)c(-c2ccc(O)c(O)c2)oc2cc(O)cc(O)c12,,"pH 6.8, 37 °C, added: UDP-glucose",kcat,0.24 s⁻¹
B3 (CstB),N[C@@H](CSS)C(=O)N[C@H]1[C@@H](O[C@@H](CC(=O)O)C(=O)O)O[C@H](CO)[C@@H](O)[C@@H]1O,,"pH 6, 25 °C, NaBr 100 mM, air-saturated, added: Fe(II), O2",kcat,19.7 ± 2.5 s⁻¹
"ABCB6 (Homo sapiens, UniProt Q9NP58)",C=CC1=C(C)c2cc3[nH]c(cc4nc(cc5[nH]c(cc1n2)c(C)c5CCC(=O)O)C(CCC(=O)O)=C4C)c(C)c3C=C,,"pH 8, 37 °C",kcat,0.162 s⁻¹
B4 (enzyme),O=P(O)(O)OC[C@H](O)CO,,"pH 8, 37 °C, apparent",kcat,4.15 s⁻¹
B5 (HEM1),CC(C)(COP(=O)(O)OP(=O)(O)OC[C@H]1O[C@@H](n2cnc3c(N)ncnc32)[C@H](O)[C@@H]1OP(=O)(O)O)[C@@H](O)C(=O)NCCC(=O)NCCSC(=O)CCC(=O)O,,"pH 7.4, 30 °C",kcat,0.0483 ± 0.00167 s⁻¹
"clpA (Escherichia coli, UniProt P0ABH9)",Nc1ncnc2c1ncn2[C@@H]1O[C@H](CO[P@](=O)(O)O[P@](=O)(O)O[P@@](=O)(O)S)[C@@H](O)[C@H]1O,,"pH 7.5, 25 °C, NaCl 300 mM, no ClpP, no polypeptide, added: MgCl2 10 mM",kcat,0.000833 ± 6.67e-05 s⁻¹
"UGT1A9 (Homo sapiens, UniProt O60656)",COc1ccc(-c2oc3cc(O)ccc3c(=O)c2O)cc1OC,,"pH 7.4, 37 °C",Km,1.16 µM and 1.03 µM
B6 (FabZ),C/C=C/C(=O)SCCNC(=O)CCNC(=O)[C@H](O)C(C)(C)COP(=O)(O)OP(=O)(O)OC[C@H]1O[C@@H](n2cnc3c(N)ncnc32)[C@H](O)[C@@H]1OP(=O)(O)O,,"pH 7.5, room temperature, NaCl 500 mM, reverse hydration reaction",kcat,0.0515 ± 0.0047 s⁻¹
B7 (HARS1 Y454S),N[C@@H](Cc1c[nH]cn1)C(=O)O,,"pH 7.5, 37 °C, KCl 150 mM, added: tRNA(His)",kcat,5.9 ± 0.5 s⁻¹
"Plasma amine oxidase (Bos taurus, UniProt Q29437)",CN(C)CCOc1ccc2cc(CN)ccc2c1,,"pH 7.2, 30 °C",kcat,0.436 ± 0.02 s⁻¹
B8 (enzyme P89Y),NC(=O)c1ccc[n+](CCCO)c1,,"pH 8, 25 °C",kcat,0.0118 ± 0.0016 s⁻¹
B9 (ycjS),CO[C@H]1O[C@H](CO)[C@@H](O)[C@H](O)[C@H]1O,,"pH 8, 30 °C, added: NAD+ 2.0 mM",kcat,0.58 ± 0.01 s⁻¹
B10 (Paox H64Q),CC(=O)NCCCNCCCCNCCCN,,"pH 10, 30 °C",kcat,4.5 ± 0.2 s⁻¹
"CYP6A8 (Drosophila melanogaster, UniProt Q27593)",CCCCCCCCCC(=O)O,DLPC,"pH 7.4, 37 °C, total hydroxylation, added: P450 reductase, NADPH",kcat,0.00225 ± 0.000117 s⁻¹

# Some of these lines once more:
Molecule,substrate,system,conditions,endpoint,result
"ABCB6 (Homo sapiens, UniProt Q9NP58)",C=CC1=C(C)c2cc3[nH]c(cc4nc(cc5[nH]c(cc1n2)c(C)c5CCC(=O)O)C(CCC(=O)O)=C4C)c(C)c3C=C,,"pH 8, 37 °C",kcat,0.162 s⁻¹
"Plasma amine oxidase (Bos taurus, UniProt Q29437)",CN(C)CCOc1ccc2cc(CN)ccc2c1,,"pH 7.2, 30 °C",kcat,0.436 ± 0.02 s⁻¹
